Measurements pooled from the literature.
Numbered parts are unrelated; each lists some results of a single study. “And” joins repeats or separate records; there may be more than shown.
Sequence of UniProt P42336 (whole entry, unmodified, looked up): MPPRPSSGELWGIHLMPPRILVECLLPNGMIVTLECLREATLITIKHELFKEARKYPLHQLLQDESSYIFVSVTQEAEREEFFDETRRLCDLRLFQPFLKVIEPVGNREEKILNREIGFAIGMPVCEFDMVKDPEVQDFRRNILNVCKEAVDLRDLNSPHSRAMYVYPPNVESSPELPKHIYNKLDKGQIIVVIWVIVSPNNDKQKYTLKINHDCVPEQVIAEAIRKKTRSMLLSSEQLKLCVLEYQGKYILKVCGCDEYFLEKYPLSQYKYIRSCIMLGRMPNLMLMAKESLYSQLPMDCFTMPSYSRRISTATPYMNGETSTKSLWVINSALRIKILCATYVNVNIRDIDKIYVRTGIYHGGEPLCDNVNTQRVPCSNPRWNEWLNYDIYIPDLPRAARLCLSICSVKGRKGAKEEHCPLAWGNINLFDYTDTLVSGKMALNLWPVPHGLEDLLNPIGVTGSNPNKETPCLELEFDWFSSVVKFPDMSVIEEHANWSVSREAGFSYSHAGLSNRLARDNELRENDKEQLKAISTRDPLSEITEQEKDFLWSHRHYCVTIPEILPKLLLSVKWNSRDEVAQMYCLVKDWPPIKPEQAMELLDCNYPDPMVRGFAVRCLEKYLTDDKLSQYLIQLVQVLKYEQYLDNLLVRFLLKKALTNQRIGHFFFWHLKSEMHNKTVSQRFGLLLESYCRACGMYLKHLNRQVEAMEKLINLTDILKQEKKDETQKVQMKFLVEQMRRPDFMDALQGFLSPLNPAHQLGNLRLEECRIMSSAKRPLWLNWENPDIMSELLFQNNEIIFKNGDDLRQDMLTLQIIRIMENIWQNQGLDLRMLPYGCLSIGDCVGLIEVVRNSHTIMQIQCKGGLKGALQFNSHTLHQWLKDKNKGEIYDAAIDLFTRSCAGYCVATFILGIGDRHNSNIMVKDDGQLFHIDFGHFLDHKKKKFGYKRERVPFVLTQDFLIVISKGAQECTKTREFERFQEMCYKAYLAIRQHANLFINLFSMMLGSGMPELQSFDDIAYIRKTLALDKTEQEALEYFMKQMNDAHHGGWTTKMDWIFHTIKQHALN
Sequence of UniProt O14920 (whole entry, looked up): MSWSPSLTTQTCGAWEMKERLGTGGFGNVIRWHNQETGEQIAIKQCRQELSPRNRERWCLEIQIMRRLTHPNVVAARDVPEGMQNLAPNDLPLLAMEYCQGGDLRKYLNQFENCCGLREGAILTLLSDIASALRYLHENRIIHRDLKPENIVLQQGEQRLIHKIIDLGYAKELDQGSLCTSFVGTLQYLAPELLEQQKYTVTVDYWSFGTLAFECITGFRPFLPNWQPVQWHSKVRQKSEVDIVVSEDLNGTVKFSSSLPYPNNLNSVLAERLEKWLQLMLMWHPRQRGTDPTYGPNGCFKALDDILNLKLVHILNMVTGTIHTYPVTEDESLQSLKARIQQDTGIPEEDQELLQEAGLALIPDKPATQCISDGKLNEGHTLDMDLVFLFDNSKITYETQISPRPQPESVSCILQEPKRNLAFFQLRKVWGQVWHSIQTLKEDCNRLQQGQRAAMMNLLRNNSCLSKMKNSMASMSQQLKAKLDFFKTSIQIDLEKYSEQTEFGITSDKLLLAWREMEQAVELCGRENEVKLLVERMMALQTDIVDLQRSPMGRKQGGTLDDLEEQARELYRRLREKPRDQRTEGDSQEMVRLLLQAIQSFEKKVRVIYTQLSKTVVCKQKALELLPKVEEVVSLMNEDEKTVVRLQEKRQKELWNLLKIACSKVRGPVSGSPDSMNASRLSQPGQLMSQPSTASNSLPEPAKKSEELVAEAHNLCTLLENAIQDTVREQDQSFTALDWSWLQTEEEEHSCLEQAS
Sequence of UniProt Q86UX6 (whole entry, looked up): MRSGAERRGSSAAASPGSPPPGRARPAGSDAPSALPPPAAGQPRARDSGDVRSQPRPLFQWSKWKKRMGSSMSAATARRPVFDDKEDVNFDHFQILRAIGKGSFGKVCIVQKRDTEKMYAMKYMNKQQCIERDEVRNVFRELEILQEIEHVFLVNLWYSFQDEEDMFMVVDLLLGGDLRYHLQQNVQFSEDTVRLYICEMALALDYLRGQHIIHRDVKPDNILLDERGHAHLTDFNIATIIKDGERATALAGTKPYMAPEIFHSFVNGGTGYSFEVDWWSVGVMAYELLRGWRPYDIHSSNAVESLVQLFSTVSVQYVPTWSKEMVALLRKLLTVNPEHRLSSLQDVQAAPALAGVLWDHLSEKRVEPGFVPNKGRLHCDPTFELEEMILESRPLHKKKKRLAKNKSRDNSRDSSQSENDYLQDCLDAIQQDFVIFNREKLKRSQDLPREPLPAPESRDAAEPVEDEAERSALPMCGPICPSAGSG
Sequence of UniProt Q96L34 (whole entry, looked up): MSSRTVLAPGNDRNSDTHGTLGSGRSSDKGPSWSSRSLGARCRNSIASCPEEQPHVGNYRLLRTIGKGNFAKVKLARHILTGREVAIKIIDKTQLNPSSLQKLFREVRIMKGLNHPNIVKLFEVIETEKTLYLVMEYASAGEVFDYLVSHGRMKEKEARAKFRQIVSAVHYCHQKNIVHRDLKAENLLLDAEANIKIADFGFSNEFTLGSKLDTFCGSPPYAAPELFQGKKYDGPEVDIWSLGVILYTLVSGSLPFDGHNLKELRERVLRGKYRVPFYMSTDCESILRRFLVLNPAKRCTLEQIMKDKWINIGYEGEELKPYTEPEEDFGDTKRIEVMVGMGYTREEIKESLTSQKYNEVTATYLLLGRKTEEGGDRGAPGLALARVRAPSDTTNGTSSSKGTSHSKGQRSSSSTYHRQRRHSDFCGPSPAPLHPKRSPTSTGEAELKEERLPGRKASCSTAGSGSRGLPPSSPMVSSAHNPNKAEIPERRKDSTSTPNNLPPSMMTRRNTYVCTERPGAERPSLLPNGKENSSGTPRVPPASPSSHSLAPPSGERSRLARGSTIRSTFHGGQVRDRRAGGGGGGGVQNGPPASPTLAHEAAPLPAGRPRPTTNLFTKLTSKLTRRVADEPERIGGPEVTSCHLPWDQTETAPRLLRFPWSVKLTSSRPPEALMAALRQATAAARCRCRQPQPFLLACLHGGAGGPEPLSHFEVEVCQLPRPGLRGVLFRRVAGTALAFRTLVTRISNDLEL
Sequence of UniProt P51955 (whole entry, looked up): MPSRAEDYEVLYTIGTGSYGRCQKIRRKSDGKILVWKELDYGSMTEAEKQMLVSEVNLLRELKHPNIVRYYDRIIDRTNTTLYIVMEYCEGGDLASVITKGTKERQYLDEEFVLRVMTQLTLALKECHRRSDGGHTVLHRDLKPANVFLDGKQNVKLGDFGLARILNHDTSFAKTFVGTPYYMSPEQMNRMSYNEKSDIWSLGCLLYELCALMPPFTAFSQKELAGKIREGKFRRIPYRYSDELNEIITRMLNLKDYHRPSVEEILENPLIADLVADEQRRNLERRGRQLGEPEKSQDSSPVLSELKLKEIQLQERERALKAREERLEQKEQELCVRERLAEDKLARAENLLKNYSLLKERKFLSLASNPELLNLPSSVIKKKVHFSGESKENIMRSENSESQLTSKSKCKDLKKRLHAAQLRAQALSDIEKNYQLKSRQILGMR
Sequence of UniProt P33981 (whole entry, looked up): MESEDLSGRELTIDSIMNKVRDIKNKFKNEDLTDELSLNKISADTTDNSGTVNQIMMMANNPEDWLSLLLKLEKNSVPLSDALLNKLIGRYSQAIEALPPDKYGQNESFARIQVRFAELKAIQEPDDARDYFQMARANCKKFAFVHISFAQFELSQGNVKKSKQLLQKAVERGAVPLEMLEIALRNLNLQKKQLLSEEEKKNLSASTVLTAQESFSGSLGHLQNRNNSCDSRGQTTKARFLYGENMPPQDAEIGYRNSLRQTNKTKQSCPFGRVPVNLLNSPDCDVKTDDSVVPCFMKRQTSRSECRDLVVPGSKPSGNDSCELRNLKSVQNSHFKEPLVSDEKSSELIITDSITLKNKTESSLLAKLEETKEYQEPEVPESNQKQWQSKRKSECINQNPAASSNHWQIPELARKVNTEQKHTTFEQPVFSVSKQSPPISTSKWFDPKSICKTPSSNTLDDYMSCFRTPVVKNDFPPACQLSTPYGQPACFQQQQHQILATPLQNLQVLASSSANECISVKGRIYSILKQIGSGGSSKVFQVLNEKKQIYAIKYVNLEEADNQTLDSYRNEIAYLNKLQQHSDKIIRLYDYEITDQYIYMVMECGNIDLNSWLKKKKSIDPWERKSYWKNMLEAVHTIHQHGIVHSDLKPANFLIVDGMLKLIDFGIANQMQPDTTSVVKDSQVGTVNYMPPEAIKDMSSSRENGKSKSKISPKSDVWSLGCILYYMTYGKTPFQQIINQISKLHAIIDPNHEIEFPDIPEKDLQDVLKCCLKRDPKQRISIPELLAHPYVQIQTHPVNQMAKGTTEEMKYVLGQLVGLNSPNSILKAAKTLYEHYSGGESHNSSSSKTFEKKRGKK
Sequence of UniProt P36897 (whole entry, looked up): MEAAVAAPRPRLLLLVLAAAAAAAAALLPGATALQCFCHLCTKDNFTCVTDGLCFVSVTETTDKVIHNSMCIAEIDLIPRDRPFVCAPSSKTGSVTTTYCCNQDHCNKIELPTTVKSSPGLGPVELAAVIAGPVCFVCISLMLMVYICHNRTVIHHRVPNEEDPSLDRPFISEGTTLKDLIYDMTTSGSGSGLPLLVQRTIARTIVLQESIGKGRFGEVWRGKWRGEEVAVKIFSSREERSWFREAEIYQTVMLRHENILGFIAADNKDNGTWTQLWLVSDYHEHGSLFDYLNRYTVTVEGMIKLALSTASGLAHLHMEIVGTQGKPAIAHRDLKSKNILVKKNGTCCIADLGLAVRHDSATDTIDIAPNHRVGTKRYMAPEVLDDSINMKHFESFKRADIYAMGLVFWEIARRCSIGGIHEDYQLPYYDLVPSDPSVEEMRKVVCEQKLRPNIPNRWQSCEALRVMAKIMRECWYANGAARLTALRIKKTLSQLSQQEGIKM

Series 1 — cell line: mouse MPNST tumor cells; technique: high-content nuclear imaging; measured: cell number; tested at: 10 µM; time: 12 h; notes: mean of 2 replicates; baseline: plate mean; direction: higher = more cells; endpoint: nuclei count
COc1ccc(CCN(C)CCCOc2ccc(S(=O)(=O)c3c(C(C)C)c4ccccc4n3C)cc2)cc1OC: -5.85 z-score
Nc1nc(=O)c2nc(CNc3ccc(C(=O)N[C@@H](CCC(=O)O)C(=O)O)cc3)cnc2[nH]1: 0.256 z-score
COc1ccc(-c2ccc3cc(C(=O)O)ccc3c2)cc1C12CC3CC(CC(C3)C1)C2: 0.622 z-score and -1.51 z-score
CC(C)(C)n1nc(-c2cccc3ccccc23)c2c(N)ncnc21: -1.5 z-score
c1ccc2c(c1)SCc1c-2[nH]c2ccccc12: -6.23 z-score
OC1C(CCl)OC(n2cnc3c(NC4CC5CCC4C5)ncnc32)C1O (stereo not drawn): 1.53 z-score
Cc1cn2c(N)c(Cl)cc(C(=O)NCC3CCN(CC(C)C)CC3)c2n1: 1.02 z-score
CC(=O)Oc1ccccc1C(=O)O: 1.38 z-score and 0.665 z-score
NC(=O)c1ccc(-c2nc(-c3ccc4c(c3)OCCO4)c(-c3ccccn3)[nH]2)cc1: -2.31 z-score
COc1ccc2nc3ccc(Cl)cc3c(SCCCN)c2c1: -1.24 z-score
CCn1cc(C(=O)O)c(=O)c2cc(F)c(N3CCNC(C)C3)c(F)c21 (stereo not drawn): 0.0962 z-score
CN1CCCC(CC2c3ccccc3Sc3ccccc32)C1 (stereo not drawn): -5.08 z-score
C[C@H](N)[C@H](O)c1cccc(O)c1: 3.4 z-score
Cc1ccc(S(=O)(=O)NCc2ccccc2)cc1: 0.59 z-score
COc1cc(COc2cc(N)c(Cl)cc2C(=O)CCC2CCN(CCNS(C)(=O)=O)CC2)cc(OC)c1: -6.35 z-score
CCCCNc1ncc(C(=O)NCc2ccc(-n3ccnc3)cc2)c(NC2CCC(O)CC2)n1 (stereo not drawn): 1.28 z-score
CC1(C)OC(=O)NC1=O: -0.0705 z-score
O=c1cc(N2CCN(c3cccc(C(F)(F)F)c3)CC2)[nH]c(=O)n1C1CCCCC1: 0.441 z-score

Series 2 — cell line: A-375; tested at: 100 µM; time: 18 h; endpoint: viability
CCn1c(=O)c2c(nc(/C=C/c3ccc(OC)c(OC)c3)n2C)n(CC)c1=O: 102%
CC(=O)Oc1cccc2c1C(=O)c1c(OC(C)=O)cc(C(=O)O)cc1C2=O: 51%
O=c1ccc2cc3ccoc3cc2o1: 104%
CCN(CC)CCNC(C(=O)OCCC(C)C)c1ccccc1 (stereo not drawn): 87.5%
CO/N=C1\C[C@]2(C[C@@H]3C[C@@H](C/C=C(\C)C[C@@H](C)/C=C/C=C4\CO[C@@H]5[C@H](O)C(C)=C[C@@H](C(=O)O3)[C@]45O)O2)O[C@H](/C(C)=C/C(C)C)[C@H]1C: 11.3%
CC(C)=CCC/C(C)=C/C=C/C(C)=C/C=C/C(C)=C/C=C/C=C(C)/C=C/C=C(C)/C=C/C=C(\C)CCC=C(C)C: 100%
C1N2CN3CN1CN(C2)C3: 86.5%
CC(N)CCCC(C)(C)O (stereo not drawn): 78.7%
OCCc1ccccc1: 97.9%
CCOC(=O)[C@H](CCc1ccccc1)N[C@H]1CCc2ccccc2N(CC(=O)O)C1=O: 101%
CC1(C)O[C@@H]2C[C@H]3[C@@H]4CCC5=CC(=O)C=C[C@]5(C)[C@H]4[C@@H](O)C[C@]3(C)[C@]2(C(=O)CO)O1: 98.8%
CCn1cc(C(=O)O)c(=O)c2cnc(N3CCNCC3)nc21: 89.6%
Cc1cc(=O)n(-c2ccccc2)n1C: 101%
O=C(O)c1ccc(-n2nc(-c3ccccc3O)nc2-c2ccccc2O)cc1: 75.9%

Series 3 — technique: competition with immobilised ligand; tested at: 1 µM; endpoint: remaining binding
SMILES: CC(=O)N1CCC(c2ccc(C(=O)NC3=NCCN3)cc2C(F)(F)F)CC1
Phosphatidylinositol 4,5-bisphosphate 3-kinase catalytic subunit alpha isoform (PIK3CA, Homo sapiens, UniProt P42336, Q546K); cell-free assay: 100%
MAP/microtubule affinity-regulating kinase 4 (MARK4, Homo sapiens, UniProt Q96L34); cell-free assay: 100%
Myosin light chain kinase 2, skeletal/cardiac muscle (MYLK2, Homo sapiens, UniProt Q9H1R3); cell-free assay: 100%
Serine/threonine-protein kinase SBK1 (SBK1, Homo sapiens, UniProt Q52WX2); cell-free assay: 97%
Serine/threonine-protein kinase 32C (STK32C, Homo sapiens, UniProt Q86UX6); cell-free assay: 100%
Dual specificity protein kinase TTK (TTK, Homo sapiens, UniProt P33981); cell-free assay: 100%
Serine/threonine-protein kinase 16 (STK16, Homo sapiens, UniProt O75716); cell-free assay: 100%
Myosin light chain kinase family member 4 (MYLK4, Homo sapiens, UniProt Q86YV6); cell-free assay: 100%
Receptor-type tyrosine-protein kinase FLT3 (FLT3, Homo sapiens, UniProt P36888, D835V/ITD); cell-free assay: 89%
Serine/threonine-protein kinase MRCK beta (CDC42BPB, Homo sapiens, UniProt Q9Y5S2); cell-free assay: 100%
Dual specificity mitogen-activated protein kinase kinase 1 (MAP2K1, Homo sapiens, UniProt Q02750); cell-free assay: 100%
Serine/threonine-protein kinase 36 (STK36, Homo sapiens, UniProt Q9NRP7); cell-free assay: 83%
Mitogen-activated protein kinase kinase kinase 15 (MAP3K15, Homo sapiens, UniProt Q6ZN16); cell-free assay: 93%
Serine/threonine-protein kinase WNK3 (WNK3, Homo sapiens, UniProt Q9BYP7); cell-free assay: 86%
Glycogen synthase kinase-3 beta (GSK3B, Homo sapiens, UniProt P49841); cell-free assay: 88%
Tyrosine-protein kinase TXK (TXK, Homo sapiens, UniProt P42681); binding: 82%
Ribosomal protein S6 kinase alpha-4, N-terminal kinase domain (RPS6KA4, Homo sapiens, UniProt O75676); cell-free assay: 100%
Activin receptor type-1B (ACVR1B, Homo sapiens, UniProt P36896); cell-free assay: 100%
Phosphatidylinositol 4,5-bisphosphate 3-kinase catalytic subunit alpha isoform (PIK3CA, Homo sapiens, UniProt P42336, E542K); cell-free assay: 100%
Proto-oncogene tyrosine-protein kinase Src (SRC, Homo sapiens, UniProt P12931); cell-free assay: 99%
Epidermal growth factor receptor (EGFR, Homo sapiens, UniProt P00533, T790M); cell-free assay: 100%
Tyrosine-protein kinase ABL1, non-phosphorylated (ABL1, Homo sapiens, UniProt P00519, F317L); cell-free assay: 87%
Ephrin type-A receptor 7 (EPHA7, Homo sapiens, UniProt Q15375); cell-free assay: 99%

Series 4 — read-out: enzyme activity; action: inhibitor; tested at: 0.5 µM; baseline: control; endpoint: remaining activity
Compound: Cn1cc(/C=C2\C(=O)Nc3ccc(S(N)(=O)=O)cc32)c2ccccc21
Serine/threonine-protein kinase Chk2 (CHEK2, Homo sapiens, UniProt O96017): 1.3%
Inhibitor of nuclear factor kappa-B kinase subunit epsilon (IKBKE, Homo sapiens, UniProt Q14164): 21.9%
TGF-beta receptor type-1 (TGFBR1, Homo sapiens, UniProt P36897): 97.8%
cAMP-dependent protein kinase catalytic subunit alpha (PRKACA, Homo sapiens, UniProt P17612): 104%
Serine/threonine-protein kinase Nek2 (NEK2, Homo sapiens, UniProt P51955): 89.1%
Cyclin-dependent kinase 5, with p25 (CDK5, Homo sapiens, UniProt Q00535): 58%
Death-associated protein kinase 1 (DAPK1, Homo sapiens, UniProt P53355): 98.9%
Calcium/calmodulin-dependent protein kinase kinase 2 (CAMKK2, Homo sapiens, UniProt Q96RR4): 34.4%
Calcium/calmodulin-dependent protein kinase type II subunit delta (CAMK2D, Homo sapiens, UniProt Q13557): 66.8%
Mitogen-activated protein kinase kinase kinase 3 (MAP3K3, Homo sapiens, UniProt Q99759): 80.7%
Serine/threonine-protein kinase STK11 (STK11, Homo sapiens, UniProt Q15831): 68.2%
Mitogen-activated protein kinase 9 (MAPK9, Homo sapiens, UniProt P45984): 93.8%
Cyclin-dependent kinase 4, with cyclin D1 (CDK4, Homo sapiens, UniProt P11802): 106%
Protein kinase C alpha type (PRKCA, Homo sapiens, UniProt P17252): 123%
Tyrosine-protein kinase Lyn, isoform B (LYN, Homo sapiens, UniProt P07948): 75%
Protein kinase C beta type, isoform beta-I (PRKCB, Homo sapiens, UniProt P05771): 114%
G protein-coupled receptor kinase 3 (GRK3, Homo sapiens, UniProt P35626): 111%
Inhibitor of nuclear factor kappa-B kinase subunit beta (IKBKB, Homo sapiens, UniProt O14920): 101%
Serine/threonine-protein kinase 10 (STK10, Homo sapiens, UniProt O94804): 17%
TGF-beta receptor type-2 (TGFBR2, Homo sapiens, UniProt P37173): 101%
cGMP-dependent protein kinase 1, isoform beta (PRKG1, Homo sapiens, UniProt Q13976): 87.2%
Serine/threonine-protein kinase OSR1 (OXSR1, Homo sapiens, UniProt O95747): 93.7%
STE20/SPS1-related proline-alanine-rich protein kinase (STK39, Homo sapiens, UniProt Q9UEW8): 79.3%

A few entries again (series 3):
Tyrosine-protein kinase ABL1, non-phosphorylated (ABL1, Homo sapiens, UniProt P00519, F317L); cell-free assay: 87%
Ribosomal protein S6 kinase alpha-4, N-terminal kinase domain (RPS6KA4, Homo sapiens, UniProt O75676); cell-free assay: 100%
Receptor-type tyrosine-protein kinase FLT3 (FLT3, Homo sapiens, UniProt P36888, D835V/ITD); cell-free assay: 89%
Dual specificity mitogen-activated protein kinase kinase 1 (MAP2K1, Homo sapiens, UniProt Q02750); cell-free assay: 100%
Activin receptor type-1B (ACVR1B, Homo sapiens, UniProt P36896); cell-free assay: 100%
Serine/threonine-protein kinase 32C (STK32C, Homo sapiens, UniProt Q86UX6); cell-free assay: 100%
Myosin light chain kinase family member 4 (MYLK4, Homo sapiens, UniProt Q86YV6); cell-free assay: 100%
Proto-oncogene tyrosine-protein kinase Src (SRC, Homo sapiens, UniProt P12931); cell-free assay: 99%
Ephrin type-A receptor 7 (EPHA7, Homo sapiens, UniProt Q15375); cell-free assay: 99%
Serine/threonine-protein kinase MRCK beta (CDC42BPB, Homo sapiens, UniProt Q9Y5S2); cell-free assay: 100%
Myosin light chain kinase 2, skeletal/cardiac muscle (MYLK2, Homo sapiens, UniProt Q9H1R3); cell-free assay: 100%
Epidermal growth factor receptor (EGFR, Homo sapiens, UniProt P00533, T790M); cell-free assay: 100%
